# Results pooled from the literature.
# Parts stem from different laboratories: compare values within a part only.

# Sample 1 — technique: aptamer microarray, sandwich; form: DNA with 2'F-ANA; sample: in vitro; tested at: 200 nM; together with: Cy3 exosite-II aptamer, 400 nM; reading: higher = stronger binding; strand: GGTTGGTGTGGTTGG
# Target: Prothrombin, mature alpha-thrombin (F2, Homo sapiens, UniProt P00734)
# Setting: whole 15-mer aptamer, many near background
Modification,mean fluorescence intensity
2'F-ANA at 2 4 5 6 8 10 12 13 15,49.1 a.u.
2'F-ANA at 1 2 7 11 13 14 15,53.3 a.u.
2'F-ANA at 1 3 8 9 10 11 12 13 15,120 a.u.
2'F-ANA at 1 2 3 8 11 13 15,228 a.u.
2'F-ANA at 2 3 7 8 9 10 11 12 15,429 a.u.
2'F-ANA at 5 7 8 11 14,44.6 a.u.
2'F-ANA at 1 2 4 7 8 10 11 15,48.7 a.u.
2'F-ANA at 2 6 9 10 13 14 15,93.4 a.u.
2'F-ANA at 1 2 5 6 15,59.7 a.u.
2'F-ANA at 5 7 8 9 12 14 15,49 a.u.
2'F-ANA at 2 3 4 6 7 9 10 11 12,246 a.u.
2'F-ANA at 1 6 8 9 10 11 13 14,45.6 a.u.
2'F-ANA at 1 3 4 5 6 8 9 12,125 a.u.
2'F-ANA at 2 4 6 8 10 14,58.5 a.u.
2'F-ANA at 1 4 6 7 9 10 11 12 13 15,51.5 a.u.
2'F-ANA at 2 4 5 6 13 14 15,54.5 a.u.
2'F-ANA at 1 10 12 13,67 a.u.
2'F-ANA at 1 2 4 11 13 15,79.6 a.u.
2'F-ANA at 4 6 7 8 9 10 11 13,108 a.u.
2'F-ANA at 4 6 7 8 12,628 a.u.
2'F-ANA at 4 7 8 9 10 14,66.8 a.u.
2'F-ANA at 1 3 5 6 9 10 11 13 14 15,52.5 a.u.
2'F-ANA at 1 4 5 6 7 10 12 15,46.1 a.u.
2'F-ANA at 2 4 6 7 8 10 12 13 15,107 a.u.
2'F-ANA at 2 3 5 7 10 12 15,62.4 a.u.

# Sample 2 — technique: protein-binding microarray; form: double-stranded DNA, one strand shown; sample: in vitro; tested at: 250 nM; setting: 60-bp whole probe; together with: salmon DNA 0.4 mg/ml; baseline: random background probes; reading: higher = stronger binding; shared flanks, not repeated: GCCTAGCAC … GTCTTGATTCGCTTGACGCTGCTG
# Target: Interferon regulatory factor 7, full length, phosphomimetic (IRF7, Homo sapiens, UniProt Q92985, residues 1-503, S101K/S471D/S472D/S475D/S476D/S477D/S483D/S484D/S487D)
# Target sequence (chain): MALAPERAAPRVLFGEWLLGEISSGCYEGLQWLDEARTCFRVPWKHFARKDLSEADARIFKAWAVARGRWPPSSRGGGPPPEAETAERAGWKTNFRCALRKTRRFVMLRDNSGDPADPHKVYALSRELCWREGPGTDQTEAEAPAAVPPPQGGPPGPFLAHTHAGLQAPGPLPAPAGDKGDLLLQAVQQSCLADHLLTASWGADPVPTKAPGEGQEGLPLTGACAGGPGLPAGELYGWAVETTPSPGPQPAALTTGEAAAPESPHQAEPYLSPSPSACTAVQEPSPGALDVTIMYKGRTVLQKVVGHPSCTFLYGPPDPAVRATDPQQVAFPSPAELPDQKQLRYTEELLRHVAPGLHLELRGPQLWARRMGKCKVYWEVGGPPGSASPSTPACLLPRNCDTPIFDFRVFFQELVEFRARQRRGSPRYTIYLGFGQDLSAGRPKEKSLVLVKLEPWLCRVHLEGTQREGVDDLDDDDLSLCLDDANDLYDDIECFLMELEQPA
Strand,log fluorescence [z-score]
GACGGACTGGACACTGGGTACGTGCTA,-0.658
TTAGGTTTCGACACTGGTTTAGTGCTA,3.89
TTAGAACTGAGTATCCATTAGTGCTAG,-0.0447
TTAGGTCTCCTTCTTCTTTAGTGCTAG,0.632
CACGATATCAGTCTCGAGACGTGCTAG,0.629
GACGGACTGAGTATCGAGACGTGCTAG,-0.21
TTACATATCAGACTGGATTAGTGCTAG,0.324
GACGATTCCAGCTTCGAGACGTGCTAG,0.408
AGCTCTTTCGTTACTTCCTCGTGCTAG,0.706
ATTATGTTTGCTTTGTTCTGGTGCTAG,0.735
GAGTTTCCATTTTCTGAATGCGTGCTA,9.8
TCAGGACTGCTTCTCCTTTAGTGCTAG,0.255
TTAGAACTGGGATTTCGATTAGTGCTA,0.468
GACGGACTGATTATCCTGACGTGCTAG,-0.342
TCATCTTTCACTACTCCACTGTGCTAG,0.862
TCAGCTTCCTCTTTCACACTGTGCTAG,0.815
TTAGGTTTCGGGTTTCGGTCAGTGCTA,11
TTAGGTTTCGGTAACGGTTAGTGCTAG,3.95
CTCTATACCCATGTAGAGAGGTGCTAG,1.41
GACGGAGTGGACTATCGGGACGTGCTA,-0.883
AACAATATATATATTATATAGTGCTAG,0.579
GACGATTTTGGGTTTCGAGACGTGCTA,2.69
TTAAGACTGGACTATCGGTTAGTGCTA,-0.209
GACCGACTGGGGACTGGGGACGTGCTA,0.025

# Sample 3 — technique: protein binding microarray; form: double-stranded DNA, one strand shown; sample: in vitro; tested at: not given; baseline: not given; reading: higher = stronger binding
# Target: Histone acetyltransferase KAT6A, winged helix 2, GST fusion (KAT6A, Homo sapiens, UniProt Q92794, residues 85-181)
# Setting: 8-mer, flanks averaged, mean of 2 arrays, mostly near background
# Target sequence (chain): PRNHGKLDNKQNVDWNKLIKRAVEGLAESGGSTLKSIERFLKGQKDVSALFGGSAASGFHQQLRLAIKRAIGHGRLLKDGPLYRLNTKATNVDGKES
Strand,E-score
ACGATGTG,-0.172
CTAGGATC,-0.135
AGTAGCTC,-0.0552
CGAGCAGC,0.104
TAGAGCCA,-0.258
GACTCATA,-0.0626
AACACTTG,-0.127
AGCCGGAC,0.216
ACAGTCGA,-0.0766
GAGATTAC,-0.186
ACTGACTG,-0.128
AAGATCTA,-0.0599
CGAGTATA,-0.0257
GATCCCGC,0.0808
CCTCGGTA,-0.0397
CCGGGACA,0.0759
ATGTCAGG,-0.17
AGGTAGCA,-0.0511
ATGACATG,-0.173
GAGAGTGC,-0.177
GTATCAGA,0.00186
GTTCTAAA,0.104
ACCGACCC,0.0521
GGTAGATA,-0.0535
ATGGCGAG,0.00394

# Sample 4 — technique: RNA Bind-n-Seq; form: RNA; sample: in vitro; tested at: not given; baseline: input RNA pool; reading: higher = stronger binding
# Target: RING finger protein unkempt homolog, zinc fingers 1-6, GST-SBP tag (UNK, Homo sapiens, UniProt Q9C0B0, residues 30-357)
# Setting: RNA with constant flanks, human and mouse sites, ends assumed
# Shared flanks, not repeated: GGGAGUUCUACAGUCCGACGAUC … CAACAGAGGAUUGAGCAUCA
# Residues (chain): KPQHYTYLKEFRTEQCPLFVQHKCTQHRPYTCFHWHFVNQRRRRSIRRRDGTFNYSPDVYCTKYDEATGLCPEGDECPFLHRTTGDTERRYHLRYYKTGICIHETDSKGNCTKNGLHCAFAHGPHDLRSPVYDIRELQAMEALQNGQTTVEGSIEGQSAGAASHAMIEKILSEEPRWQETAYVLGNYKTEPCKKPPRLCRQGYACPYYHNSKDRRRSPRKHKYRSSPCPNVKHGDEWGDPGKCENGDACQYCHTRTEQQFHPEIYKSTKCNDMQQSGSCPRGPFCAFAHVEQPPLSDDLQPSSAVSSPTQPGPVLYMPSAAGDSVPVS
Strand,bound/input enrichment [ratio]
GCUCCUGGUACACCAGAGGUCAAGGCCGGUGGGGUUUUCUUUUUUUAAUUGGUUGUUGAGAAGUUUCAGAAGUUCGUUUUCCAGCUGUGGUCAUUUCAGACACAUCUGCACCAUAACUCA,0.398
UCUGAAUCUGAACAGGCUCUUAAAGGUACUUCUCAGAUUAAAUUACUCUCAUCUGAAGAUAUAGAAGGGAUGCGACUUGUAUGUAGGCUUGCUAGAGAAGUUUUGGAUGUUGCUGCCGGC,1.09
CCAGGGGCCCCUCGCCUCCCCUCUGAGGACCGAAGAUGAGCUUCCUCUUCAGCAGCCGCUCUUCUAAAACAUUCAAACCAAAGAAGAAUAUCCCUGAAGGAUCUCAUCAGUAUGAACUCU,0.31
GCCGAUGAAGUGCAGAGGUUUUUUUCUGACUGCAAAAUUCAAAAUGGGGCUCAAGGUAUUCGUUUCAUCUACACCAGAGAAGGCAGACCAAGUGGCGAGGCUUUUGUUGAACUUGAAUCA,0.0899
AAAGCUGCACUGAAAAGCUUGAUUCCUACAUUGGAAAAAACCAAAAGCACCAGCAAAGGAAUAGAAAUUCUACUUGAAAAACUGAGCACAUAGGUGGAAAGAGUUAAGAGCAAGAUGGAA,0.241
AAGAAGCCAACAGUUGAAGAAAGAGCAAAAGCAGAUACUUUAAAGCUUCCACCUACAUUUUUCUGUGGAGUCUGCAGUGAUACUGAUGAGGACAAUGGAAAUGGGGAGGAUUUUCAGUCA,0.2
GCUGCUACAUUCAGUUUUUUAAUAUCCUAUGGUCAUGAUGCAAUCUUGUGAAUGGCCUUGUUAGUUACAAUGUGGUUUGGAUGGGAAGUGUCCCACCUGUAGACUCACGUCUUUGAACAU,0.411
ACAUGAGAGAACCCACACUGGAGAGAAACCCUAUGAAUGUAUUGACUGUGGGAAAGCCUUUAGUCAAAGUUCAUCUCUCAUUCAGCAUGAGAGAACUCAUACUGGAGAGAAGCCCUAUGA,0.194
CGGCCCCGUGACCCUAGUCGGCCGCUGAGAGGCGCGCGGAGUCUGGGCCGCUGCCGUCUAGGGGUCCCGUCCCGAGGCGUCCCCGGCAUCUCCGGCCCGAAUCCCGGAGUGCCGGGUCGC,0.227
GAGUAUUUAUAAACCAGCGCAGGAAAGCAUCUCUCAUCUGCCAGUGCUAACCCGCACGAGCAGCGGAAGACACUUGUAGACGGCAAGAGCUGAUGUAAAGCUUCUACCAUGACUGUGUCA,0.121
UUCAUUCAUGCUAAUGUUGACAUUGACUUAAUUAUCACAGAAGAACCUGAAAUUGGCAAUAUAGAAAAACCUGUAGAAAUUUUUCAUAUAAUUGAGCAUUUUUGUCUUGGUAGAAGACGC,1.17

# Some of these lines once more (sample 2):
Strand,log fluorescence [z-score]
GAGTTTCCATTTTCTGAATGCGTGCTA,9.8
TCAGGACTGCTTCTCCTTTAGTGCTAG,0.255
TTAGAACTGGGATTTCGATTAGTGCTA,0.468
GACGGACTGATTATCCTGACGTGCTAG,-0.342
TCATCTTTCACTACTCCACTGTGCTAG,0.862
TCAGCTTCCTCTTTCACACTGTGCTAG,0.815
TTAGGTTTCGGGTTTCGGTCAGTGCTA,11
TTAGGTTTCGGTAACGGTTAGTGCTAG,3.95
CTCTATACCCATGTAGAGAGGTGCTAG,1.41
GACGGAGTGGACTATCGGGACGTGCTA,-0.883
AACAATATATATATTATATAGTGCTAG,0.579
GACGATTTTGGGTTTCGAGACGTGCTA,2.69
TTAAGACTGGACTATCGGTTAGTGCTA,-0.209
GACCGACTGGGGACTGGGGACGTGCTA,0.025
